Assay results collected from several papers.
Numbered parts are unrelated; each lists some results of a single study. Positions count from the first letter of the parent shown.

Study 1
Target: CCNB2, cyclin fold, Cln2 fusion (human)
Technique: yeast growth competition, sequencing
Sample: yeast
Notes: strong parent motif
Reference: not given
Direction: higher = stronger binding
Starting sequence: E2F1 docking peptide (human); PPVKRRLDFETDH; partner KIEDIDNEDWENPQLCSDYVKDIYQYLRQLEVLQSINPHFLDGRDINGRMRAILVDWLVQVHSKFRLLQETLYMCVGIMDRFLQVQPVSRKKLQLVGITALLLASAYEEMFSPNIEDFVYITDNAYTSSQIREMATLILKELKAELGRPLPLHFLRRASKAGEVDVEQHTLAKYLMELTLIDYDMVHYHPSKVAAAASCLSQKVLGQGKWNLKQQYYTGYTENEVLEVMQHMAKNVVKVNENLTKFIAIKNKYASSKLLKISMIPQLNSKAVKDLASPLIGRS
Under “normalised enrichment score”, `F9T` is recorded as 0.0618.
For `E10Q`, “normalised enrichment score” read 2.63.
`V3M`: “normalised enrichment score” 1.74.
`R6Y`: “normalised enrichment score” 2.32.
`L7R` — result for “normalised enrichment score”: 0.178.
Under “normalised enrichment score”, `D8H` is recorded as 2.48.
Under “normalised enrichment score”, `R6Q` is recorded as 2.61.
`P2A`: “normalised enrichment score” 2.97.
`R6F` — result for “normalised enrichment score”: 1.53.
`P2E` — result for “normalised enrichment score”: 3.71.
`D8P` — result for “normalised enrichment score”: 0.794.
`T11C` — result for “normalised enrichment score”: 3.9.
`L7C` — result for “normalised enrichment score”: 0.263.
`T11I` — result for “normalised enrichment score”: 3.31.
`F9S`: “normalised enrichment score” 0.339.

Study 2
Target: ABI1, truncated, D143A, DHFR fusion (Arabidopsis thaliana)
Technique: DHFR PCA, deep sequencing
Sample: yeast
Notes: methotrexate growth selection, single substitutions
With: (+)-ABA 2500 µM
Reference: wild-type fitted maximum
Direction: higher = stronger binding
Starting sequence: PYL1, truncated, DHFR fusion (Arabidopsis thaliana); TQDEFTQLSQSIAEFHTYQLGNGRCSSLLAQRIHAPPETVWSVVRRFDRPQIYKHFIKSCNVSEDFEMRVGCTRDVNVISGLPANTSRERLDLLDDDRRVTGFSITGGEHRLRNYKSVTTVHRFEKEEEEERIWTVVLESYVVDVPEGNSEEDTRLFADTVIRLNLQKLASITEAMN; partner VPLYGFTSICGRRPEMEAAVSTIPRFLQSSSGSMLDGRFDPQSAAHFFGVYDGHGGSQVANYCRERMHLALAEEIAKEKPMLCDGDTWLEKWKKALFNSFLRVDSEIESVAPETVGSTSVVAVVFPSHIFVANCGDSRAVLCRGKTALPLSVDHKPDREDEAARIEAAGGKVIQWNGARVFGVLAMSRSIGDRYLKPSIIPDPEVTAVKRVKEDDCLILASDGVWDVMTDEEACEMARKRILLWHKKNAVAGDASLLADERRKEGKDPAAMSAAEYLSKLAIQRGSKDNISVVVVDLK
For `V121C`, “relative binding score” read 98.6%.
`E14K`: “relative binding score” 79.2%.
Under “relative binding score”, `M176G` is recorded as 103%.
`T119E` — result for “relative binding score”: 34.5%.
`E174Y` — result for “relative binding score”: 89.4%.
`V137H`: “relative binding score” 0.11%.
For `S140V`, “relative binding score” read 1.89%.
`V62S`: “relative binding score” 88.2%.
`A158Q` — result for “relative binding score”: 37.4%.
For `L93R`, “relative binding score” read 105%.
Under “relative binding score”, `I79D` is recorded as 82.7%.
For `I172D`, “relative binding score” read 63.3%.
For `D97S`, “relative binding score” read 104%.
`S11G`: “relative binding score” 101%.

Study 3
Target: RNA binding protein fox-1 homolog 2, RRM domain, GST-SBP tag (RBFOX2, Homo sapiens, UniProt O43251-10, residues 100-194)
Technique: RNA Bind-n-Seq
Form: RNA
Sample: in vitro
Concentration: 365 nM
Notes: natural RNA segment, single round, ends assumed
Reference: no-protein control
Direction: higher = stronger binding
Construct (chain): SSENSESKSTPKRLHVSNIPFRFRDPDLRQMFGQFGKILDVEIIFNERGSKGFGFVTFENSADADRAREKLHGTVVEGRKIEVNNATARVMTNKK
Under “RBNS enrichment (R)”, `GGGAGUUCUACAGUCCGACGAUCGAGCUUCUUUGAGGCCAAGAAGCUGGUGUAGUGCCCUCUUUGUAUGACCCUUCCUUUUUACCUCAUUUAUUUGGUACUUUCCCCACACAGUCCUUUAUCCACCUGGAUUUUGGAAUUCUCGGGUGCCAA` is recorded as 1.13.
`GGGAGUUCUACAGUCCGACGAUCGAAAGAGUUCCUCACAUACAGGACUUUUAGCAGUGCCGGCUCCCCCACCUCCUGCAGCAGCAGCAGUACAAGGGACUGGCUAGGAUGGAGUCAGGCAGCUCACACUGGACUGGAAUUCUCGGGUGCCAA` — result for “RBNS enrichment (R)”: 0.364.
`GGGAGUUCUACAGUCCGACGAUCAUAAUUGUCAAAAACCAGAAUUAGGUCAAGUUCAUAGUUUCUGUAAUUGGCUUUUGAAUCAAAGAAUAGGGAGACAAUCUAAAAAAUAUCUUAGGUUGGAGAUGACAGAAUGGAAUUCUCGGGUGCCAA` — result for “RBNS enrichment (R)”: 0.4.
For `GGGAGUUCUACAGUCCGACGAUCGUCGUGGAGCCACUUCUCGCACUGCCACGGAGCAGCCGGAAACAAGGAGGCCUCGUGGGAUCCUUUAGUGCCAAGCCUGGCGUCCCUGGCCUCAAUUCCGACCUGAGCCCUGGAAUUCUCGGGUGCCAA`, “RBNS enrichment (R)” read 0.346.
`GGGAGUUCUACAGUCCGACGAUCUGGAUUAACAAAUAUUUUGAGUUUCCUGAAAACAAACAGAAACAUUAAUGGUAUUGAAGUGUGUUAGUAGUCUGGCCGUGUGCCCAAACUUAUGUUUCGCAGCAAAAGUGUGGAAUUCUCGGGUGCCAA`: “RBNS enrichment (R)” 0.298.
`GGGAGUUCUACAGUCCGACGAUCGCUGUUCAUGUGGAUUCAUUCCAUUCAGUGGCCCCUUGGGGUUUGCAUGCCAGUGAAGCGUUACCAUAGAAGAGCCAGCCGUUUGUGUUCGCUUGGUAGGUGUAAGUAAUUGGAAUUCUCGGGUGCCAA` — result for “RBNS enrichment (R)”: 7.91.
For `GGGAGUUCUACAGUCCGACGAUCAAAAACAUAUAUUUUGCAGAGCUCCACAUACAGAAACACAUUAUUUUGCAGAAAUAAGUGUUUGUAAGAAGUUUUACUAUAGGAAAGUCUACUUUUUUAAGCAGCAAAGUUGGAAUUCUCGGGUGCCAA`, “RBNS enrichment (R)” read 0.815.
Under “RBNS enrichment (R)”, `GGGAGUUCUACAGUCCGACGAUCAAGCGAGGUUUCAUGACACAACCUUUCAUGUCGUGAAAGGCAGAGGGUGACUGUGUGUGAUGUGCAGAGUCCUUGGACAGGAGUCGGGGGCUCCUCUGUCCCACUGCUGCUGGAAUUCUCGGGUGCCAA` is recorded as 0.493.
Under “RBNS enrichment (R)”, `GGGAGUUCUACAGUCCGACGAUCCCUGAAAGAUGUUUGAGGCUUGGGAUUCCAAACUUGGUUUAUUAAACAUAUAGUCACCAUCUUCCUAGAGUUGAAGACUUAUUUGUGGCGGGGUUGCACUUUUAGAGGUCUGGAAUUCUCGGGUGCCAA` is recorded as 0.64.
`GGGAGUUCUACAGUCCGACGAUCUGGCAGUUUUGACAUCAGCCAGCUGCCCUAAAUAACCCUUCAACGUUUCUUCACUUUUGCAAGGUUCCACAGAGUAAGACAUUGGGUCUAUUCCAGCUCAUUCAUUUUAUUGGAAUUCUCGGGUGCCAA` — result for “RBNS enrichment (R)”: 0.684.
For `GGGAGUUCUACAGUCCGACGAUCCAGCUCUCCCCCUCCAUCUUGGGGGGGCGGAGCAGUUGGGCCCAAGCUGCCCGGGAGGGUGGGUGCAGACACAGGCUGAGGACCAGCCCUGGCCCUGCCCCGCCAUCUGCUGGAAUUCUCGGGUGCCAA`, “RBNS enrichment (R)” read 0.172.
For `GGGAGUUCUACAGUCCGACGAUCGCCUUAAACUGAAAAGUUAAAAAUUGAUGGAUUGUAGCAUUCCCAUAAUCUCCCCCUUCUUUUUUUUUCCUUUGGAAAUGUCCAAUAGUCUAUAUUCCUCUGUCCCGCCCUGGAAUUCUCGGGUGCCAA`, “RBNS enrichment (R)” read 0.955.

Further values, each from its own experiment
With `PhoQ, residues 284 288 289 292 302 303 ALVSVA` the fold induction was 21.4 (PhoP, residues 12 14 15 18 19 SFCSL (Escherichia coli, UniProt P23836); Sort-seq, refers to: YFP reporter; E. coli; PhoQ-PhoP variant library, with: 10 µM Mg2+; reference: high Mg2+ state, higher = stronger signaling).

Some of these lines once more (study 1):
`F9S`: “normalised enrichment score” 0.339.
Under “normalised enrichment score”, `R6Q` is recorded as 2.61.
`R6Y`: “normalised enrichment score” 2.32.
Under “normalised enrichment score”, `F9T` is recorded as 0.0618.
`L7C` — result for “normalised enrichment score”: 0.263.
`V3M`: “normalised enrichment score” 1.74.
